Measurements from different studies.
Numbered parts are unrelated; each lists some results of a single study.

Set 1
Target: Phosphate system positive regulatory protein PHO4, full length, GST-tagged (PHO4, Saccharomyces cerevisiae, UniProt P07270, residues 1-312)
Technique: competition protein-binding microarray
Molecule type: double-stranded DNA, one strand shown
Matrix: in vitro
Tested at: 2 µM
Setting: whole 60-bp probe, lowest competitor level
With: Cbf1 competitor, 0.05 µM
Reading: higher = stronger binding
Shared flanks, not repeated: … GTCTTGATTCGCTTGACGCTGCTG
Construct (chain): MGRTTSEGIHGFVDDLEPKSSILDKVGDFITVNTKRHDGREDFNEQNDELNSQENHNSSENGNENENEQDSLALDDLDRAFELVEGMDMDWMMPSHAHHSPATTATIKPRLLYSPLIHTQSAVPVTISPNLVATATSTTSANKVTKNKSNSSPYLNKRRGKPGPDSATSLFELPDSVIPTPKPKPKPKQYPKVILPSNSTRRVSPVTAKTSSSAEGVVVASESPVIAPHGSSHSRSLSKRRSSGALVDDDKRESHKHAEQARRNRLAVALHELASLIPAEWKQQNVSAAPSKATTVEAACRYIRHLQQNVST
| Sequence | fluorescence intensity |
| --- | --- |
| CGGCCCTTCTCACCCCCCGTGTTTCGCAAAGAACAA | 8980 a.u. |
| AAATTACTAAGTTTTCACGTGGGATACCCCGTATGA | 16400 a.u. |
| GTCTTGTCTCATTGTAGGGTGGGTGTCCCCACTTCA | 4260 a.u. |
| GGGCTTATGAGAGACCACGTGGTCTTGTGCTTTAGT | 19000 a.u. |
| CGTCCTAGCGATTGATTAGTGGGTGCCATGAGGAAG | 6590 a.u. |
| CGGGGTTAAGTTTGCGAAGTGGGTGGCTTGCAGCAG | 4900 a.u. |
| CTGGACGGCAGAAAGCACGCAGGCAGGGGGCCTCTG | 6490 a.u. |
| GGGATCGCTATACTCCACGTGAAGTGACGCCTTGGA | 12000 a.u. |
| CGGGGTTAAGTTTGTCTTGTGGGTGGCTTGCAGCAG | 5270 a.u. |
| AAAGCCGTTCTTCGTCACGTGACTCGAAGTTGTAGC | 14600 a.u. |
| CTTCTGTAAATTTGTCACGCTACTTGACGCGCCCCG | 5480 a.u. |
| CTAACGAAGGTTTGAGCCGTGGGTGACAAGCCAAGT | 4260 a.u. |
| CTTCTGTAAATTTGCCACGTGTTTTGACGCGCCCCG | 15800 a.u. |
| CGTAGGGCTGATATCCACCTGATCGACAATGTCCAA | 3460 a.u. |
| AAATTACTAAGTTCCCACGTGTTTTACCCCGTATGA | 16200 a.u. |
| GTAAAAAATAGCATTTGCGTGCTTTAGTGAAATTTT | 6970 a.u. |
| GAAATGGAGCATTCACACGTGAAGATTTTTAGGGGA | 13100 a.u. |
| GCCTAAGGGCCTGCCATCGTGCTTTCTCAAACTATT | 10200 a.u. |
| TGCGCAACAACTTTTCACGTGAGGTTATGTCTAGAA | 12400 a.u. |
| CAGCAATGAATTTGGCTCGTGATGGGGGCCCAGGTC | 6540 a.u. |

Set 2
Target: RING finger protein unkempt homolog, zinc fingers 1-6, SBP tag (UNK, Homo sapiens, UniProt Q9C0B0, residues 30-357)
UniProt Q9C0B0, sequence (30-357, looked up): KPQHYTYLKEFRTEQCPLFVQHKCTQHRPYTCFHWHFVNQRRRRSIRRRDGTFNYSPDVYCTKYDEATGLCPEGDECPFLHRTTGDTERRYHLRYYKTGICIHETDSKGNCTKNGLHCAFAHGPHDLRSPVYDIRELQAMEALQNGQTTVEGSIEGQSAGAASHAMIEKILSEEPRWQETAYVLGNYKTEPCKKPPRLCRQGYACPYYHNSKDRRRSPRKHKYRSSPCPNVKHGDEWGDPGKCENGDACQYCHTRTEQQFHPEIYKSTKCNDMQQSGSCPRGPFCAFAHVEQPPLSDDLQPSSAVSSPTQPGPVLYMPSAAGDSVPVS
Technique: RNA Bind-n-Seq
Molecule type: RNA
Matrix: in vitro
Tested at: 100 nM
Setting: RNA with constant flanks, vertebrate orthologous sites, ends assumed
Reference: input RNA pool
Reading: higher = stronger binding
Shared flanks, not repeated: GGGAGUUCUACAGUCCGACGAUC … CAACAGAGGAUUGAGCAUCA
| Sequence | bound/input enrichment [ratio] |
| --- | --- |
| AGCUUCUGGUGACAUUUGGCCUGGCCUUUCAGCAUAUGAUAACAGUCCAAGGUCACCCCAUAGUCCUUCUAUUGCCUCCCCACCCAGUCAGAGUUCAUCUUGCUCUGAUGCCCCUUUGCU | 0.586 |
| ACCUACAAUAAUGAAAACCUACAGAAAUUUUUUAAUUUUUCAUUUCCCUUUAGGCAUAUUUAGUCCUUUUCCCCCCAGGCAGAUCAUUCUGAGUGUGCGAGUGUGUGUGCACAUGUUACA | 1.17 |
| UUCAGGUACAACGGACUGGUUCCCAGCAUUCCUUACACAGUUAUUUAUCAAGUACAAGUGUAGUUAAUUUUCAGGAUACAUCCAGGCAGUCAGCAUUAUCUUGCAGUCCAGUUGGAGAUG | 0.913 |
| CAGGGUGGGACCCGGGACCCGCGGCUCAGUGGCCCGCUAGCCACGUCAGCCAAGCCACUUUAGGUCCAUUUUUUAAUUUUAACAGUGCUCUUCCAUCUUGUGCAUAAGCCUGAGAUUUGG | 2.12 |
| UUGUUUCUAUCGGUAUCAGAUUGCAUUUACACACCCGCUGAAACUCUCCUUAAUUUUAUCUUUAGAAACAGAACCAGUAAUACUUCAGUAGUUGAGCUUUUUAAUAUGUUAAAGCUAAUA | 0.606 |
| CUCCCCCUUACCCCUAAAGUAGAACUUUUUAAAAUUAUGUCACCACCACUUGUAAAAAUUUAGCAAUAUUCGAAGAAAAUGCUCAUGAAGUAAGAAAUUCUGCUCAUGGUUUUGCAAAGC | 1.07 |
| UAUCUUUAGGAUGAAGCUCUUACACCAAGUGUCACGAGUCUGGAGAACAGACGGGUUGAGUAGUUGUUCUUAUAAAUUAGUAUCCGUGGAACACAAUCCUUUGUAUGUCAACAUCACAGU | 0.542 |
| CAUGUCCUUGUUACUGUGAUAUUUAAAAUAUCCACAGUAUUCACCUUUUUCAAAUGAUUCUAGUAAAAUCUUUCUCUUAUCUGUUAUUUAUCAAUUUUUCCCAGUAUUUUUAUAUGGAAA | 1.96 |
| UCCUCAACUUGUUCUAGCUUGUGAUCCUUCAAAGUUGGGUCAUACGUUAGUGCUAGAUACUAGAAAUUGUCACUUUUCCACUGAUCAGAGAGACAGACAUUAAAAACAAAAAUAGAAGAA | 1.43 |
| UGGAGGGAGGUUUACUUCCUUCAACUUCAAUUUUUCAGGUUGUAGCUGAUUUUUUUUUUCCUCCUUUCUCUUCGCUGUUCUUUUGCUUCCUUUCUGUCUCCCAGACUUCAAAUACACAAG | 0.405 |
| CAGCUGAUUCACUCAUUGGCAGAGCUGCACAUAUAGCUGUUCUGGAUUCAGAAAUAUUUUUAGAGAAAUUCUUUCUGGUUGCUGCCCUCAAAUAUUUCCAAUAGAAUUAAAAACAUUGGU | 0.926 |

Set 3
Target: Fragile X messenger ribonucleoprotein 1, C-terminal low-complexity region (Fmr1, Mus musculus, UniProt P35922)
Technique: RNA Bind-n-Seq
Molecule type: RNA
Matrix: in vitro
Tested at: 200 nM
Setting: whole 134-nt RNA, ends assumed
With: 150 mM LiCl
Reference: input library
Reading: higher = stronger binding
All molecules: 7-deaza-guanosine replaces G
Shared flanks, not repeated: GGGAGUUCUACAGUCCGACGAUC … UGGAAUUCUCGGGUGUCAAGG
| Sequence | log2 enrichment |
| --- | --- |
| GCUUUGCCUUCACUUAUUUCUUUGCUUUUUAAAAACUAUUUGUAAUGUAAUUUUAAUGCAUUUUUUACAGGCCCAGUAAUGGUUAAAUAC | 0.533 |
| UCCUGUGCUACACAUCGUAUGUACCGAAUCGGGGAAAAAGGGAAAAAGGGGAAAAAGGGAAAGUAUUAUGUUACGCCGUUCGGAUCUGCA | -0.458 |
| CACAGACAACACGCACCCACACAUACACAGAGGGAAGGGGUUGGGAUGGGGACAGGGUGCACAGCAGGGCGGGGUAGGACCCCAGCCCCU | 0.158 |
| UGGGAGGUGGAUUUUGUUUAUUUUUUUAGCUCAUUUCCAGGGGUGGGAAUUUUUUUUUAAUAUGUGUCAUGAAUACAGUUGUUUUUGAAA | -0.14 |
| GUCCUGUGCUACACAUCGUAUGUACCGAAUCAAACCCCCAAACCCCCAAAUUUUUAAAAAAGUAUUAUGUUACGCCGUUCGGAUCUGCAC | 1.55 |
| GUCCUGUGCUACACAUCGUAUGUACCGAAUCGGGGAAAGGGGUUUUUGGGGAAAGGGGAAAGUAUUAUGUUACGCCGUUCGGAUCUGCAC | -0.213 |
| ACCAUGCAGGUGGGCAUCUUUGGGAAGUGGGGCAAGGGGGGGAUAGGGAGGGGGGUAACGCUUUGGGAACAGGUGGUCCCAGGUCGUUUC | 1.02 |
| CUGUGCUACACAUCGUAUGUACCGAAUCGGGGUUUUUUUGGGGUUUUUGGGGUUUUUGGGGAAAGUAUUAUGUUACGCCGUUCGGAUCUG | 1.62 |
| AAGUCCUGUGCUACACAUCGUAUGUACCGAAUCGGUUUUUUUGGUUUUUUUGGAGGAAAGUAUUAUGUUACGCCGUUCGGAUCUGCACUU | -1.52 |
| UGGCCCUGGUGGCAUGCGGGGAGGAAGAGGUGGCCUCAUGGAUCGUGGUGGUCCCGGUGUAAUGUUCAGAGGUGGCCGUGGUGGAGACAG | -0.496 |
| UUCUCUAAGAGGAACUCCGGCGCGUCAGAGUAACAGAAGCGAGAGCACAGACAGUCUUGGGGGCUUGUCUCCCUCUGAAGUCACAGCCAU | 0.245 |

Set 4
Target: Hepatocyte nuclear factor 3-beta, forkhead domain (FOXA2, Homo sapiens, UniProt Q9Y261, residues 142-269)
Technique: protein-binding microarray
Molecule type: double-stranded DNA, one strand shown
Matrix: in vitro
Tested at: not given
Setting: k-mer, scored over probes, only values ≥0.25
Reading: higher = stronger binding
Construct (chain): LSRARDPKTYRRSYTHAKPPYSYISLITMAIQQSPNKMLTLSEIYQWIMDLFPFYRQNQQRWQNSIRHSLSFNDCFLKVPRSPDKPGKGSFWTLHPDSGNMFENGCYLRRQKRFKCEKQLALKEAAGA
| Sequence | E-score |
| --- | --- |
| TATCAATA | 0.255 |
| ATAAGCAG | 0.254 |
| ACTATACA | 0.292 |
| ATTTACTC | 0.351 |
| TAACACCA | 0.255 |
| AGTATGTC | 0.286 |
| TAGTGACA | 0.297 |
| ATTAATAG | 0.357 |
| CTATCTAC | 0.256 |
| ACAAATAT | 0.421 |
| ATATGTGA | 0.402 |
| TATATTAA | 0.265 |
| AGAAATAG | 0.282 |
| ATATATAT | 0.302 |
| GTCTAGTA | 0.285 |
| GTAACACA | 0.282 |
| TCTTTACA | 0.28 |
| ACAACACC | 0.289 |
| TAAACACA | 0.353 |

A few entries again (set 1):
| Sequence | fluorescence intensity |
| --- | --- |
| CGTAGGGCTGATATCCACCTGATCGACAATGTCCAA | 3460 a.u. |
| AAATTACTAAGTTCCCACGTGTTTTACCCCGTATGA | 16200 a.u. |
| GTAAAAAATAGCATTTGCGTGCTTTAGTGAAATTTT | 6970 a.u. |
| GAAATGGAGCATTCACACGTGAAGATTTTTAGGGGA | 13100 a.u. |
| GCCTAAGGGCCTGCCATCGTGCTTTCTCAAACTATT | 10200 a.u. |
